# Measured values from different studies.
# Compare with care: the assays were run in different laboratories. Values joined by “and” are separate records of one study, mostly repeats; a detail may differ. Numbers after ± are the reported error.
# Hrh3: Histamine H3 receptor (Hrh3, Rattus norvegicus, UniProt Q9QYN8)
# Nos2: Nitric oxide synthase, inducible (Nos2, Mus musculus, UniProt P29477)
# Tmem97: Sigma intracellular receptor 2 (Tmem97, Rattus norvegicus, UniProt Q5U3Y7)
# Caspase-2 circularly permuted: Caspase-2, circularly permuted (Homo sapiens, UniProt P42575)
# TYMS: Thymidylate synthase (TYMS, Homo sapiens, UniProt P04818)
# FUT8: Alpha-(1,6)-fucosyltransferase (FUT8, Homo sapiens, UniProt Q9BYC5)
# blaNDM-1: Metallo-beta-lactamase type 2 (blaNDM-1, Klebsiella pneumoniae, UniProt C7C422)
# Caspase-2: Caspase-2 (Homo sapiens, UniProt P42575)
# MAOA: Amine oxidase [flavin-containing] A (MAOA, Homo sapiens, UniProt P21397)
SMILES,target,test,test system,setting,Ki
Cc1cc(OCCCN2CCN(c3cccc4sccc34)CC2)ccc1CN1CCCC1,Hrh3,"ligand displacement, radioligand",,cell membranes,0.0669 µM
N=C(Cc1ccccc1)NCCC[C@H](N)C(=O)O,Nos2,"enzyme activity, inhibitor",,,2400 µM
OC[C@H]1[C@@H](O)[C@@H](O)CN1Cc1ccc(Br)cc1,"Golgi alpha-mannosidase IIb (Drosophila melanogaster, UniProt Q9VF33)",Dixon plot,,together with: pNP-Man 0.5 to 4 mM,58 µM
CC[C@H](C)[C@H](NC(=O)[C@@H](NC(=O)[C@H](CO)NC(=O)[C@@H](NC(=O)[C@H](CCC(N)=O)NC(=O)[C@H](CCSC)NC(=O)[C@@H](N)CS)[C@@H](C)O)[C@@H](C)CC)C(=O)O,"Na(+)/H(+) exchange regulatory cofactor NHE-RF1, PDZ1 domain (NHERF1, Homo sapiens, UniProt O14745)","binding to PDZ1 domain, inhibitor, fluorescence polarization",,,245 ± 71 µM
C/C(=N\OCCCN1CCOCC1)c1ccc(C(F)(F)F)cc1,Tmem97,"ligand displacement, radioligand",,,1.14 µM
Cc1cc(CN2CCCC2)ccc1OCCCN1CCN(c2cccc3sccc23)CC1,Hrh3,"ligand displacement, radioligand",,cell membranes,0.0613 µM
CC1(C)NC(N)=Nc2nc3cc(Cl)c(Cl)cc3n21,"Pteridine reductase (PTR1, Trypanosoma brucei brucei, UniProt O76290)",inhibitor,,pH 3.7,50.6 µM
CC(=O)N[C@H](C(=O)N[C@@H](CC(=O)O)C(=O)N[C@H](C(=O)N[C@H](CCN)C(=O)N[C@H](C=O)CC(=O)O)C(C)C)C(C)C,Caspase-2 circularly permuted,"enzyme activity, inhibitor",,"pH 6.5, 37 °C, together with: Z-VDVAD-AFC",38.9 µM
N=C(N)Nc1nc2ccc(Cl)cc2[nH]1,TYMS,inhibitor,,,> 500 µM
Nc1nc2c(ncn2[C@@H]2O[C@H](COP(=O)(O)OP(=O)(O)O[C@H]3O[C@@H](CNC(=O)c4ccc(-c5ccccc5)cc4)[C@@H](O)[C@@H](O)[C@@H]3F)[C@@H](O)[C@H]2O)c(=O)[nH]1,FUT8,"enzyme activity, inhibitor",,,273 µM
Cc1nc(N=Nc2ccc(S(=O)(=O)O)cc2S(=O)(=O)O)c(COP(=O)(O)O)c(C=O)c1O,"Nucleoside triphosphate diphosphohydrolase 3 (Rattus norvegicus, UniProt A6I415)","enzyme activity, inhibitor",,cell membranes,3 µM
COC(=O)C(CS)N1C(=O)c2cccc3c(N(C)C)ccc(c23)C1=O (stereo not shown),blaNDM-1,"enzyme activity, inhibitor",,"Km 0.55 µM, together with: chromacef 25 µM",0.2 ± 0.01 µM
CC(=O)N[C@H](C(=O)N[C@H](C(=O)N[C@@H](CCN)C(=O)N[C@H](C=O)CC(=O)O)C(C)C)[C@@H](C)O,Caspase-2,"enzyme activity, inhibitor, fluorescence",,pH 6.5,61.7 µM
CC(Oc1cc(-c2ccccc2)nc2ccncc12)C(=O)N(C)c1ccccc1 (stereo not shown),"TSPO (Homo sapiens, UniProt P30536)",cell-free assay,,,0.025 µM
CC1(C)NC(N)=Nc2nc3ccccc3n21,TYMS,inhibitor,,,> 500 µM
Fc1cc(OCCCN2CCN(c3cccc4sccc34)CC2)ccc1CN1CCOCC1,Hrh3,"ligand displacement, radioligand",,cell membranes,0.0542 µM
CC[C@H](C)[C@H](NC(C)=O)C(=O)N[C@H](C(=O)N[C@H](C(=O)N[C@@H](CN)C(=O)N[C@H](C=O)CC(=O)O)C(C)C)[C@@H](C)O,Caspase-2,"enzyme activity, inhibitor, fluorescence",,pH 6.5,1.17 µM
Cc1ccc2c(c1Br)C(O)(CC(=O)c1ccc3c(c1)OCO3)C(=O)N2 (stereo not shown),"Uncharacterized protein (Trypanosoma brucei brucei, UniProt Q386Q8)","enzyme activity, competitive inhibitor",Trypanosoma brucei,"together with: varying UTP, GlcNAc-1-P 40 µM",60 µM
COC(=O)[C@@H](CS)N1C(=O)c2ccc(N(C)C)cc2C1=O,blaNDM-1,"enzyme activity, inhibitor",,"Km 0.55 µM, together with: chromacef 25 µM",0.17 ± 0.02 µM
CCC1(CC)C(=O)N(c2cccc(CN3CCN(Cc4ccc(Br)cc4)CC3)c2)C1=O,"DPP9 (Homo sapiens, UniProt Q86TI2)","enzyme activity, inhibitor, fluorescence",,,0.184 µM
COc1ccc2[nH]c(-c3cccc4ccccc34)c(CCNC(=O)CI)c2n1,"MTNR1B (Homo sapiens, UniProt P49286)","ligand displacement, radioligand",,cell membranes,0.000794 µM
Cc1cc(C(C)(C)C)ccc1OCCOCCN(C)C,"SIGMAR1 (Cavia porcellus, UniProt Q60492)","ligand displacement, radioligand",,,0.0008 µM
CC(Oc1cc(-c2ccccc2)nc2cnccc12)C(=O)N(C)c1ccccc1 (stereo not shown),"TSPO (Homo sapiens, UniProt P30536, T147A)",cell-free assay,,,0.0014 µM
CC(=O)N[C@H](C(=O)N[C@@H](CC(=O)O)C(=O)N[C@H](CCCCN)C(=O)N[C@H](C(=O)N[C@H](C=O)CC(=O)O)C(C)C)C(C)C,Caspase-2 circularly permuted,"enzyme activity, inhibitor",,"pH 6.5, 37 °C, together with: Z-VDVAD-AFC",> 100 µM
Nc1nc2c(ncn2[C@@H]2O[C@H](COP(=O)(O)OP(=O)(O)O[C@H]3O[C@@H](CNC(=O)CCCc4ccccc4)[C@@H](O)[C@@H](O)[C@@H]3F)[C@@H](O)[C@H]2O)c(=O)[nH]1,FUT8,"enzyme activity, inhibitor",,,57.1 µM
CC[C@H](C)[C@H](NC(=O)[C@H](CCCCN)NC(=O)[C@H](CO)NC(=O)[C@@H](NC(=O)[C@H](CCC(N)=O)NC(=O)[C@H](CCSC)NC(=O)[C@@H](N)CS)[C@@H](C)O)C(=O)O,"Na(+)/H(+) exchange regulatory cofactor NHE-RF1, PDZ2 domain (NHERF1, Homo sapiens, UniProt O14745)","binding to PDZ2 domain, inhibitor, fluorescence polarization",,,1700 ± 1300 µM
Nc1nc2c(ncn2[C@@H]2O[C@H](COP(=O)(O)OP(=O)(O)O[C@H]3O[C@@H](CNC(=O)C(c4ccccc4)C4CCCCC4)[C@@H](O)[C@@H](O)[C@@H]3F)[C@@H](O)[C@H]2O)c(=O)[nH]1 (stereo partly shown),FUT8,"enzyme activity, inhibitor",,,519 µM and 518 µM
CC(=O)N[C@H](C(=O)N[C@@H](CC(=O)O)C(=O)N[C@H](CCN)C(=O)N[C@H](C(=O)N[C@H](C=O)CC(=O)O)C(C)C)C(C)C,Caspase-2 circularly permuted,"enzyme activity, inhibitor",,"pH 6.5, 37 °C, together with: Z-VDVAD-AFC",64.6 µM
O=C(O)C1CC(OS(=O)(=O)c2ccc(-c3ccc(F)cc3)cc2)CN1 (stereo not shown),"Slc1a5 (Rattus norvegicus, UniProt D3ZJ25)","leak anion current, inhibitor, whole-cell patch clamp",HEK293,"0 mV, no external alanine, 140 mM NaCl external, SCN- internal",8.07 µM and 8.1 µM
CC(=O)N[C@@H](C)C(=O)N[C@@H](CCCCN)C(=O)N[C@H](C=O)CC(=O)O,Caspase-2 circularly permuted,"enzyme activity, inhibitor",,"pH 6.5, 37 °C, together with: Z-VDVAD-AFC",> 100 µM
Cc1cc(N)nc(C[C@@H]2CNC[C@@H]2OCCCCCc2cc(F)cc(Cl)c2)c1,Nos2,"enzyme activity, inhibitor",,pH 7.4,106 µM
CC(=O)N[C@@H](CCC(N)=O)C(=O)N[C@@H](CC(=O)O)C(=O)N[C@H](C(=O)N[C@@H](CCCNC(=N)N)C(=O)N[C@H](C=O)CC(=O)O)[C@@H](C)O,Caspase-2,"enzyme activity, inhibitor, fluorescence",,pH 6.5,0.0955 µM
CNC(=O)C1CCN(c2cc(C)c(F)cc2NC(=O)c2ccc(-c3cc(O)ccc3C)c(C)c2)CC1,"BLK (Homo sapiens, UniProt P51451)","cell-free assay, TR-FRET",,,0.0088 µM
CC(=O)N[C@@H](CC(=O)O)C(=O)N[C@@H](CCCNC(=N)N)C(=O)N[C@@H](C)C(=O)N[C@H](C=O)CC(=O)O,Caspase-2,"enzyme activity, inhibitor, fluorescence",,pH 6.5,0.407 µM
CC(=O)NCC1OC(OP(=O)(O)OP(=O)(O)OCC2OC(n3cnc4c(=O)[nH]c(N)nc43)C(O)C2O)C(F)C(O)C1O (stereo not shown),"FUT1 (Homo sapiens, UniProt P19526)","enzyme activity, inhibitor",,,5.4 µM
"O=C(c1ccc(=O)n(CCF)c1)C1CCN(C2Cc3ccccc3CC2O)CC1 (single isomer, unassigned; (+))",Tmem97,"ligand displacement, radioligand",,,2.96 µM
CCCCCCCCCC[C@@H]1O[C@@H]1CCCCC(C)C,"pheromone-binding protein 2 (Lymantria dispar, UniProt O16106)","binding, competitive fluorescence binding",,"pH 5.5, pheromone-binding protein 2, together with: 1-NPN probe",5.54 ± 0.04 µM
COc1ccc(CCCN[C@H]2CCC[C@@H]2CN[C@H]2CCC[C@@H]2CNCCCCN[C@H]2CCC[C@@H]2CN)cc1,MAOA,"enzyme activity, inhibitor",,,290 µM
Cc1cc(=O)c2c(O)c3c(OC4OC(CO)C(O)C(O)C4O)cccc3cc2o1 (stereo not shown),MAOA,"enzyme activity, inhibitor",,,6.26 µM
Cc1cc(N)nc(CC2CNCC2OCCNCC(F)(F)c2ccc(F)cc2)c1 (stereo not shown),Nos2,"enzyme activity, inhibitor, hemoglobin capture",,,190 µM
